Assay results from different studies.
Every numbered part comes from another study and shows a few of its results, in no order.
UniProt P49761, sequence (whole entry, looked up): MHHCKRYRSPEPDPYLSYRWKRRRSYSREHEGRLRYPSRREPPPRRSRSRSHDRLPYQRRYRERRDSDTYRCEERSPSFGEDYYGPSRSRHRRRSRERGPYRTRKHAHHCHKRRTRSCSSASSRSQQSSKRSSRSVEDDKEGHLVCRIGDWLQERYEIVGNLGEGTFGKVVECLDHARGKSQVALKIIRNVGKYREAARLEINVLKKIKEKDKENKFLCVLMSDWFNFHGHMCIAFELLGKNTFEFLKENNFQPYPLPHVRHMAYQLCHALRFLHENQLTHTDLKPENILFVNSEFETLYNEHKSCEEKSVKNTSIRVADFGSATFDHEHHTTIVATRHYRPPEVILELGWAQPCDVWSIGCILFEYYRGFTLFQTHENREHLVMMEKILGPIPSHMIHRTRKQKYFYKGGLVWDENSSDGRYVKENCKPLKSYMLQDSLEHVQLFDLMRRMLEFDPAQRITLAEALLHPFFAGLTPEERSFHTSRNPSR

Block 1 — method: universal PBM; form: double-stranded DNA, one strand shown; medium: in vitro; tested at: 600 nM; reading: higher = stronger binding
Target: Sal-like protein 4, full length isoform A (SALL4, Homo sapiens, UniProt Q9UJQ4, residues 1-1053)
UniProt Q9UJQ4, sequence (whole entry, looked up): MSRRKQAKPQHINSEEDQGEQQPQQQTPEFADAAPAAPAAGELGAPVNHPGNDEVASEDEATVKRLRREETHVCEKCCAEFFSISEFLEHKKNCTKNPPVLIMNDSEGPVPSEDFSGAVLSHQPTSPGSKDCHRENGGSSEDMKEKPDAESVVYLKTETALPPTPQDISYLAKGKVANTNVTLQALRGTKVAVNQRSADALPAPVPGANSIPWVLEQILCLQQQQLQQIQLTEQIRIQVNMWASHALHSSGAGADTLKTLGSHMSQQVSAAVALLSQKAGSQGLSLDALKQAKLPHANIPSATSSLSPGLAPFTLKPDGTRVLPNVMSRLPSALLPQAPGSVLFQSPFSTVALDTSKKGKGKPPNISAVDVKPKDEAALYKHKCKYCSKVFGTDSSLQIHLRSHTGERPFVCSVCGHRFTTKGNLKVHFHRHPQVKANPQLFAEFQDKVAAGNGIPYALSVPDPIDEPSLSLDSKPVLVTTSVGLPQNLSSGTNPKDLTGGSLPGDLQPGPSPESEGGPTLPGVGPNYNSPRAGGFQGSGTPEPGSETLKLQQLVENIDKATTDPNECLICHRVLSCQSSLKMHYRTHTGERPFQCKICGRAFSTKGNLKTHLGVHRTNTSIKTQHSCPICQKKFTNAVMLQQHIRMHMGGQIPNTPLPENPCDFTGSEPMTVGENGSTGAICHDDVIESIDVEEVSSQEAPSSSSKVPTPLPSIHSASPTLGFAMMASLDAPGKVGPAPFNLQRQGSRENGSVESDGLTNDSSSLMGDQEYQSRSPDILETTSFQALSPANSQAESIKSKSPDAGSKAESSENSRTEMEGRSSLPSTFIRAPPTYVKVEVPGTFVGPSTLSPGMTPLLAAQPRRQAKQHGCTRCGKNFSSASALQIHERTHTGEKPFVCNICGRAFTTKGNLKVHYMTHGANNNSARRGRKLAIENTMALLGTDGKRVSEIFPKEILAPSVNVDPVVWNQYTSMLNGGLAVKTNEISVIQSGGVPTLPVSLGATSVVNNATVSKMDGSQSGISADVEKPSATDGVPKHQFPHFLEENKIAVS
Notes: 8-mer, flanks averaged, mean of replicates
| Strand | E-score |
| --- | --- |
| GGAAAACC | -0.139 |
| ATTGACAG | 0.0711 |
| GAGTACAC | -0.0897 |
| AAGACGCA | -0.0404 |
| GGTCCTAC | -0.242 |
| GCAGGCGA | -0.204 |
| GAGTCTTA | -0.0167 |
| AATGACAT | 0.194 |

Block 2 — method: protein binding microarray; form: double-stranded DNA, one strand shown; medium: in vitro; tested at: not given; baseline: not given; reading: higher = stronger binding
Target: Histone acetyltransferase KAT6A, winged helix 2, GST fusion (KAT6A, Homo sapiens, UniProt Q92794, residues 85-181)
Notes: 8-mer, flanks averaged, mean of 2 arrays, mostly near background
Residues (chain): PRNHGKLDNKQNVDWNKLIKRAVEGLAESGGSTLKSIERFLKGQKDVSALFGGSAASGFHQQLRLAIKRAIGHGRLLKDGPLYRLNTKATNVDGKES
| Strand | E-score |
| --- | --- |
| CAACTCCC | 0.156 |
| GATTCAGC | 0.173 |
| AGTGGAAC | 0.069 |
| CCAAGGAA | -0.153 |
| TCCAACGA | 0.0455 |
| AGTAGTCG | -0.0867 |
| ATTGTACC | -0.00645 |
| ACAACTTA | -0.0862 |

Block 3 — method: RNA Bind-n-Seq; form: RNA; medium: in vitro; tested at: 90 pmol; notes: 4-mer, random 30-nt RNA, single round; baseline: input library; reading: higher = stronger binding
Target: ATP-dependent RNA helicase DDX3X, helicase core (DDX3X, Homo sapiens, UniProt O00571, residues 132-607)
UniProt O00571, sequence (132-607, looked up): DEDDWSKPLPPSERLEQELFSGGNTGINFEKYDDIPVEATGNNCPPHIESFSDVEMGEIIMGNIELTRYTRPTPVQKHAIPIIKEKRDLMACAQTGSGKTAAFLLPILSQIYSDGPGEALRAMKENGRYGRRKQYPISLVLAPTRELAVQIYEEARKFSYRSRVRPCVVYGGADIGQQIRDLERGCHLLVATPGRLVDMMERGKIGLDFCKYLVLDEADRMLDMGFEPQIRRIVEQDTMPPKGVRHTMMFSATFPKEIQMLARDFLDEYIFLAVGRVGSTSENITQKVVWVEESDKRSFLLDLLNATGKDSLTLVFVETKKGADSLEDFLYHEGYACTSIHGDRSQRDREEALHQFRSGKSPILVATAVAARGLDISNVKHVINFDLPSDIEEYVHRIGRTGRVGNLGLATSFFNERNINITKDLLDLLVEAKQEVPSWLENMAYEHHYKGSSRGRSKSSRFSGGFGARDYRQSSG
With: 3 µM iPr-DMDA-PatA, 2 mM ADP, 2 mM phosphate
| Strand | 4-mer enrichment [fold] |
| --- | --- |
| GGAA | 1.37 |
| CCAC | 1.23 |
| CGGC | 0.652 |
| AAGA | 1.75 |
| AGAA | 1.64 |
| UUCU | 0.907 |
| UUAA | 1.3 |
| CGUU | 0.815 |

Mixed results
| SMILES | target | read-out | method | tested at | endpoint | result |
| --- | --- | --- | --- | --- | --- | --- |
| Cn1nc(C(F)(F)F)cc1-c1cnc(N2CCc3cc(S(=O)(=O)Nc4c(F)cc(Cl)cc4F)cc(N4CCCC4=O)c32)nc1 | Dual specificity protein kinase CLK3 (CLK3, Homo sapiens, UniProt P49761) | cell-free assay | competition with immobilised ligand | 1 µM | remaining binding | 88% |

Repeated from above (block 3):
| Strand | 4-mer enrichment [fold] |
| --- | --- |
| GGAA | 1.37 |
| AAGA | 1.75 |
| CGUU | 0.815 |
